Results gathered from unrelated publications.
Each numbered part is a random draw from the data of one study; scales do not carry over between parts. Changes are numbered by the printed parent chain.

Sample 1
Target: Interferon regulatory factor 5, full length, phosphomimetic (IRF5, Homo sapiens, UniProt Q13568-2, residues 1-514, K96S/S451D/S453D/S456D/S462D)
Method: protein-binding microarray
Form: double-stranded DNA, one strand shown
Sample: in vitro
Concentration: 250 nM
Notes: 60-bp whole probe
Together with: salmon DNA 0.4 mg/ml
Reference: random background probes
Reading: higher = stronger binding
Shared flanks, not repeated: GCCTAGCAC … GTCTTGATTCGCTTGACGCTGCTG
`TAAGATCTCAGACTGGATTAGTGCTAG` gave a log fluorescence of -0.407 z-score.
The log fluorescence of `TCACATTTGGAAAATGTAACTGTGCTA` is reported as 0.391 z-score.
For `TCAGAACTGGGGTTTCGATTAGTGCTA`, the log fluorescence was 5.64 z-score.
`TCATCTCTTTCCTTCTTACTGTGCTAG` gave a log fluorescence of 1.57 z-score.
`GAGGGACTGGACTTTCGGGACGTGCTA` has a log fluorescence of 4.13 z-score.
For `TCACGGGCTTCTTTTTCTACTGTGCTA`, the log fluorescence was 0.924 z-score.
For `TCAGTTGTGATTCTTTCACTGTGCTAG`, the log fluorescence was 1.72 z-score.
The log fluorescence of `TACTGCTGGAGCTCAAGAGCGTGCTAG` is reported as -0.837 z-score.
`GACCATTTCAGTTCCGAGACGTGCTAG` has a log fluorescence of 1.2 z-score.

Sample 2
Target: CREM, bZIP domain (human)
Method: DHFR protein complementation
Sample: yeast
Notes: single substitutions, most at no-binding floor
Reference: wild-type JUN-FOS pair
Reading: higher = stronger binding
Parent: JUN, bZIP domain (human); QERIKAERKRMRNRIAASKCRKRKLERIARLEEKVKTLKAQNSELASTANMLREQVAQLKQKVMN; partner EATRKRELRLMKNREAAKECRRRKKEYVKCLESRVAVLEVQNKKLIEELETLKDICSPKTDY
`E32H` has a binding fitness of -1.46 natural log.
The binding fitness of `V35S` is reported as -1.52 natural log.
The binding fitness of `Q41T` is reported as -1.41 natural log.
`E54S` has a binding fitness of -1.22 natural log.
`T37V` gave a binding fitness of -1.39 natural log.
The binding fitness of `T48A` is reported as -1.33 natural log.
`S47A` gave a binding fitness of -1.38 natural log.

Sample 3
Target: Histone acetyltransferase KAT6A, winged helix 1, GST fusion (KAT6A, Homo sapiens, UniProt Q92794, residues 1-85)
Method: protein binding microarray
Form: double-stranded DNA, one strand shown
Sample: in vitro
Concentration: not given
Notes: 8-mer, flanks averaged, mean of 2 arrays, mostly near background
Reference: not given
Reading: higher = stronger binding
Target sequence (chain): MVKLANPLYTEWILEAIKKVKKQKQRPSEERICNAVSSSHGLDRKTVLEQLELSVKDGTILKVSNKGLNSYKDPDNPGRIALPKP
`ATGAATCC` has an E-score of -0.0825.
`ACTAGGGG` gave an E-score of -0.0654.
For `AATCGCCG`, the E-score was 0.393.
The E-score of `ACTAATAT` is reported as -0.0877.
`GGCCCGAA` has an E-score of 0.156.
`AAGATACG` gave an E-score of 0.0288.
For `CGAGCTCA`, the E-score was 0.0113.
The E-score of `GAAATCCC` is reported as 0.0157.
The E-score of `ATCGCGTC` is reported as 0.244.
`TGCGTCAA` has an E-score of 0.00785.

Further values, each from its own experiment
With `PhoQ, residues 284 288 289 292 302 303 NSMLDC` the fold induction was 17.6 (PhoP, residues 12 14 15 18 19 MHTVL (Escherichia coli, UniProt P23836); Sort-seq, item: YFP reporter; E. coli; PhoQ-PhoP variant library, together with: 10 µM Mg2+; reference: high Mg2+ state, higher = stronger signaling).

A few entries again (sample 1):
The log fluorescence of `TACTGCTGGAGCTCAAGAGCGTGCTAG` is reported as -0.837 z-score.
The log fluorescence of `TCACATTTGGAAAATGTAACTGTGCTA` is reported as 0.391 z-score.
`TAAGATCTCAGACTGGATTAGTGCTAG` gave a log fluorescence of -0.407 z-score.
